Measured values pooled from the literature.
Compare with care: the assays were run in different laboratories.
Target: Cyclin-dependent kinase 11B (CDK11B, Homo sapiens, UniProt P21127)

Cc1ccc(-c2c(/C=C(\C#N)C(=O)NC(C)C)n(CCCO)c3ncnc(N)c23)cc1
remaining binding (cell-free assay, competition with immobilised ligand; 1 µM): 100%

Cc1cnc2nc1Nc1cccc(c1)COC/C=C/COCc1cc(ccc1OCCN1CCOCC1)N2
remaining binding (binding, competition with immobilised ligand; 0.1 µM): 98%

C=CC(=O)N1CCc2ccc(-n3c(=O)ccc4cnc5ccc(-c6cnn(C)c6)cc5c43)cc21
remaining binding (KINOMEscan; 1 µM; reference: DMSO control): 100%

CCN1CCN(Cc2ccc(C(=O)Nc3ccc(C)c(NCc4cnc5[nH]ccc5c4OC)c3)cc2C(F)(F)F)CC1
remaining binding (binding, competition with immobilised ligand; 1 µM): 98%

CC(C)=CC1OC(C)(C)C2C=C3C(=O)C(Cl)=CC(O)C3C3C(O)C4OC4C(=O)C132 (stereo not drawn)
remaining binding (cell-free assay, competition with immobilised ligand; 10 µM): 77%

COc1cc(Nc2nc(C)cc(-c3cnn4nc(OC)ccc34)n2)cc(C(F)(F)F)c1
remaining activity (inhibitor; 1 µM, CDC2L1; reference: control): 100%

C=CC(=O)N1CCCC(n2c(=O)c3ncccc3n(Cc3ccc(Oc4ccccc4)cc3)c2=O)C1 (stereo not drawn)
remaining binding (cell-free assay, competition with immobilised ligand; 1 µM): 100%

CNC(=O)C1CCN(c2cc(C)c(F)cc2NC(=O)c2ccc(-c3cc(O)ccc3C)c(C)c2)CC1
remaining binding (binding, competition with immobilised ligand; 1 µM): 93%

Nc1ncc2c(n1)-c1c([nH]c3ccc(C4=CCOCC4)cc13)CCC2
remaining binding (binding, competition with immobilised ligand; 1 µM): 100%

CNC1C[S+]2CC[S+]3CC[S+](C1)[Ru-4]321([N]=C=S)[n]2c3ccc(OC)cc3c3c4c(c5cc(F)c[n+]1c5c32)C(=O)NC4=O (stereo not drawn)
remaining binding (KinomeScan; 0.1 µM; reference: untreated): 95%

COc1c(Cl)cccc1Nc1c(-c2ccncc2C#C[C@@]2(C)CCCN2C(=O)/C=C/CN(C)C)[nH]c2c1C(=O)NCC2
remaining binding (binding, competition with immobilised ligand; 3 µM): 100%

COc1cc(Nc2nccc(-c3cnn4nc(OC)ccc34)n2)cc(C(F)(F)F)c1
remaining binding (binding, competition with immobilised ligand; 1 µM): 90%
